{"data": "Published values from different studies", "note": "Every numbered part comes from another study and shows a few of its results, in no order. Positions count from the first letter of the parent shown."}
{"data": "Study 1", "target": "ABI1, truncated, D143A, DHFR fusion (Arabidopsis thaliana)", "technique": "DHFR PCA, deep sequencing", "matrix": "yeast", "setting": "methotrexate growth selection, single substitutions", "together with": "(+)-ABA 710 µM", "baseline": "wild-type fitted maximum", "direction": "higher = stronger binding", "parent": "PYL1, truncated, DHFR fusion (Arabidopsis thaliana); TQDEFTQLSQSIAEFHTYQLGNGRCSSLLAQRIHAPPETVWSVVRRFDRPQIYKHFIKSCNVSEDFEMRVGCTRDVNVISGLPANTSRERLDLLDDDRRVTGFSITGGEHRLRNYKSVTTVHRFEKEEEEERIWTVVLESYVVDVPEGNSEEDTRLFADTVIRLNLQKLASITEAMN"}
{"Change": "V62G", "relative binding score": "70.2%"}
{"Change": "T73E", "relative binding score": "105%"}
{"Change": "E4W", "relative binding score": "104%"}
{"Change": "T135R", "relative binding score": "10.9%"}
{"Change": "V145S", "relative binding score": "79.8%"}
{"Change": "Q19R", "relative binding score": "105%"}
{"Change": "H16V", "relative binding score": "19.9%"}
{"Change": "T160A", "relative binding score": "87.5%"}
{"Change": "E151N", "relative binding score": "98.6%"}
{"Change": "Q2D", "relative binding score": "106%"}
{"Change": "R74K", "relative binding score": "-19.5%"}
{"Change": "Q2K", "relative binding score": "105%"}
{"Change": "Y141T", "relative binding score": "-3.67%"}
{"Change": "V161S", "relative binding score": "10.9%"}
{"Change": "L156R", "relative binding score": "94.3%"}
{"Change": "S171G", "relative binding score": "96.9%"}
{"Change": "E38W", "relative binding score": "87.8%"}
{"Change": "N85T", "relative binding score": "109%"}
{"data": "Study 2", "target": "RING finger protein unkempt homolog, zinc fingers 1-6, GST-SBP tag (UNK, Homo sapiens, UniProt Q9C0B0, residues 30-357)", "technique": "RNA Bind-n-Seq", "molecule type": "RNA", "matrix": "in vitro", "concentration": "not given", "setting": "RNA with constant flanks, human-mouse chimeric sites, ends assumed", "baseline": "input RNA pool", "direction": "higher = stronger binding", "Construct (chain)": "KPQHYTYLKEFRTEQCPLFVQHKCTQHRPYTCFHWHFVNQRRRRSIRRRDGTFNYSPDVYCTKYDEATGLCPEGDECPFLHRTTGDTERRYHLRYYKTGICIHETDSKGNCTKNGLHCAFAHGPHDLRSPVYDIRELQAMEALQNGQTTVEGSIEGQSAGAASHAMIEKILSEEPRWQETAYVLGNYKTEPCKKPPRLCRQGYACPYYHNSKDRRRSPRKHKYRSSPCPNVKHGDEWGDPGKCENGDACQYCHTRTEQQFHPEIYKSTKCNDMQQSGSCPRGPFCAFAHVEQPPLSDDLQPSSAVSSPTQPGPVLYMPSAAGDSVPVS"}
{"Strand": "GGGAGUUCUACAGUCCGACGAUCGGACAUCUGUCAAAUUGUUAUGUUCCUGUGAAACAAGUGAGCACUUUGAUACACUUCAUCUGCUUGUACAUCUGUAUGAUAGAGAAAUGUAAAUAUGUUAAUCCAAGAUGAAUUCAACUUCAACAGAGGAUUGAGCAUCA", "bound/input enrichment [ratio]": 0.201}
{"Strand": "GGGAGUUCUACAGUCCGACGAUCUACUCAACUUUCUUGCCACAUUUUGAAUUCCAAGACAUUAUUCCUCCAGAUGACUUUCUAACUAGUGAUGAAGAGCAAGAUUUGGUUUUAUUUGGAACUAUGAGAGGACAAGUUGUUGGACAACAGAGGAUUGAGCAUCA", "bound/input enrichment [ratio]": 0.264}
{"Strand": "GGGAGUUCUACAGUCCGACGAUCCUCAGAGACGUGGCAUAUCAGUAUGUGAAAAAGGGGUCUCGUAUAUUUGUGGAAGGGAAAGUGGACUAUGGCGAGUACAUGGAUAAAAACAAUGUGAGGCGGCAAGCAACAACAAUCAUACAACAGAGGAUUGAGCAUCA", "bound/input enrichment [ratio]": 0.304}
{"Strand": "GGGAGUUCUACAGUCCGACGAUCGAGCGUCUUGCCCGCACUGGGAUCAUCGUGACCACUAGUGAGGCUGUUCUGCUUCAGCUGGUGGCUGAUAAGGACCACCCGAAGUUCAAGGAAAUUCAGAACCUAAUUAAGGCGAGUGCCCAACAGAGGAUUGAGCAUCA", "bound/input enrichment [ratio]": 0.0833}
{"Strand": "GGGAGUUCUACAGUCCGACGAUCAACAGAUUGUCUUUAAGGUCAACGUAGGAGAAUGCUGGGGUGAUCAUUGUUGCCCAUGUGCCUUCUGACUGAGCUUUUAAUUAAUUGCAUGUUACAUCUUUCCUUCACUCCAGAAUUGUUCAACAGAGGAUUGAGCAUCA", "bound/input enrichment [ratio]": 0.119}
{"Strand": "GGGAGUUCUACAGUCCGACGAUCUGGCGCCUGCGCUCCCCACUCGUGUUUUUAAGUGUAUAAGAUGUAUAUACAUGUAUUUACAAUUGAGCUUUUGUUACAUAAUGCUGAAAACAUCUCUGAGAUUAUGAAAAAUGUUUCAAUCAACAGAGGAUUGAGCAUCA", "bound/input enrichment [ratio]": 0.085}
{"Strand": "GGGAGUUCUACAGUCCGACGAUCCGCUGGCCCAAGCUGAUGGACUCUGAUGGCCUCCAUCUCUCAGGCACGUUUGCCUUCUCUUAGUCCCUGUUUUCGGGUCACAAAGCUUCUCAGUACUGUGGUUUGAAAGCACCAGCUUUGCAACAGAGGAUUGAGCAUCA", "bound/input enrichment [ratio]": 0.129}
{"Strand": "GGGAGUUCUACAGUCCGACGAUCCUGUGUGUGCUGAAUAAAUGGCUUGUAAGAACUGUCCUCCAAGCUGUAACCCAUGCUUCCCUUAGAGUUGCUGCAAAAUGUUCUUCCUGAUAUUGAUUUUAUUUGUUAACUGAAGGUCUCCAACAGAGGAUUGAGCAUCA", "bound/input enrichment [ratio]": 0.402}
{"Strand": "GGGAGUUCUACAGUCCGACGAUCGAAUCCUACUCAGGCGGAUUUUGCAACACCAAGCUCACAGCAGCAGCAUCUUAGUCACAGUAGGGUAGCUUUAGGGCUCUGUGGCCAGGGUUUUAUUCACAUGCAGGUUUGGAAAAUGUACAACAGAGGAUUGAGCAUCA", "bound/input enrichment [ratio]": 0.65}
{"Strand": "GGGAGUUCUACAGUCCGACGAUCGAUAAGAAAAGCUUGUUGGAGACCCGAUUGCAUGUCACUGGUAGAGACCUGAGGUGUCAAAUAGCUGAAACUUUCGGAUUUCAAGAAAAUUACAUCAAGAUCGUAAUAAAUAAGAAACAGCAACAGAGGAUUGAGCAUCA", "bound/input enrichment [ratio]": 0.252}
{"Strand": "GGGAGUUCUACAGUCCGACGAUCGCGGCAGAAUCAUGGAGGACAUAAUGCACUUGCCCAGAGCGCGCGUCAACGCCAGCAUGUUACCACAGUAUAUCGACCGGCCCGUGUGCUUCGUGGGGAGGCUGGAAAAGAUUCAUCCCACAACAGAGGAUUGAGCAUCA", "bound/input enrichment [ratio]": 0.125}
{"data": "Study 3", "target": "CCNE1, cyclin fold, Cln2 fusion (human)", "technique": "yeast growth competition, sequencing", "matrix": "yeast", "setting": "strong parent motif", "baseline": "not given", "direction": "higher = stronger binding", "parent": "CDC25A docking peptide (human); PPHRRRLLFACSP"}
{"Change": "P2F", "normalised enrichment score": 1.22}
{"Change": "C11L", "normalised enrichment score": 1.28}
{"Change": "P2W", "normalised enrichment score": 1.16}
{"Change": "R5E", "normalised enrichment score": 0.17}
{"Change": "L8E", "normalised enrichment score": 2.57}
{"Change": "F9L", "normalised enrichment score": 0.346}
{"Change": "A10M", "normalised enrichment score": 1.94}
{"Change": "R5T", "normalised enrichment score": 0.104}
{"Change": "H3K", "normalised enrichment score": 0.656}
{"Change": "A10S", "normalised enrichment score": 1.64}
{"Change": "L7W", "normalised enrichment score": 1.11}
{"Change": "A10Q", "normalised enrichment score": 1.95}
{"Change": "L7E", "normalised enrichment score": 0.491}
{"Change": "L7C", "normalised enrichment score": 0.865}
{"Change": "A10N", "normalised enrichment score": 2.34}
{"Change": "H3P", "normalised enrichment score": 0.63}
{"Change": "P13V", "normalised enrichment score": 0.706}
{"Change": "L7A", "normalised enrichment score": 0.892}
{"Change": "R5D", "normalised enrichment score": -0.194}
{"data": "Study 4", "target": "Interferon regulatory factor 7, full length, phosphomimetic (IRF7, Homo sapiens, UniProt Q92985, residues 1-503, S471D/S472D/S475D/S476D/S477D/S483D/S484D/S487D)", "technique": "protein-binding microarray", "molecule type": "double-stranded DNA, one strand shown", "matrix": "in vitro", "concentration": "2200 nM top", "setting": "60-bp whole probe", "together with": "salmon DNA 0.4 mg/ml", "baseline": "random background probes", "direction": "higher = stronger binding", "all sequences stand within": "GCCTAGCAC … GTCTTGATTCGCTTGACGCTGCTG", "Residues (chain)": "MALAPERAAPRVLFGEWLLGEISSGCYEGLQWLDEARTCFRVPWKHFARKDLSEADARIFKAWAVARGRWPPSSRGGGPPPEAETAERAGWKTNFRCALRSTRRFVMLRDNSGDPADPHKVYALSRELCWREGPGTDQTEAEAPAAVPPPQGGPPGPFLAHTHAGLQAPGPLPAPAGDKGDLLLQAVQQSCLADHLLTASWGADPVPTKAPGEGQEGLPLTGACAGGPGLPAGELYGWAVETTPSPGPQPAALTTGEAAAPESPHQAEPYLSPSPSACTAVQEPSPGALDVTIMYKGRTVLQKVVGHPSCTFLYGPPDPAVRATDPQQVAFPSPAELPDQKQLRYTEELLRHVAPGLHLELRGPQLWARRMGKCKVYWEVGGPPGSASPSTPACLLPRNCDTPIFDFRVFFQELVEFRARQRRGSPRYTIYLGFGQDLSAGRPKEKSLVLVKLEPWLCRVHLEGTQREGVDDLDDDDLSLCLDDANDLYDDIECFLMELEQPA"}
{"Strand": "TTACGACTGGACACTGGGTTAGTGCTA", "fitted relative affinity [z-score]": 0.241}
{"Strand": "TTGTTTTTTGGTTTCTGGTTGTGCTAG", "fitted relative affinity [z-score]": 6.09}
{"Strand": "GACGGTATCCTTTTCCTGAAGTGCTAG", "fitted relative affinity [z-score]": 1.16}
{"Strand": "TCATATATCTGTGTTATACTGTGCTAG", "fitted relative affinity [z-score]": 1.37}
{"Strand": "GCACTTTGGGAGGCCGAGGCGTGCTAG", "fitted relative affinity [z-score]": 0.458}
{"Strand": "GATGGACTGGGGACTGGGGACGTGCTA", "fitted relative affinity [z-score]": -0.502}
{"Strand": "GACGATATCAGTCTCTAGACGTGCTAG", "fitted relative affinity [z-score]": 0.273}
{"Strand": "TACGATATCGGGTATCGAGACGTGCTA", "fitted relative affinity [z-score]": 0.323}
{"Strand": "TTAGATCTCAGTATCGTTTAGTGCTAG", "fitted relative affinity [z-score]": 0.594}
{"Strand": "GACGGTTTCGGTATCGTGACGTGCTAG", "fitted relative affinity [z-score]": 7.36}
{"Strand": "GACGATTTCAGTCTCGTGACGTGCTAG", "fitted relative affinity [z-score]": 0.863}
{"Strand": "ACCACTTTTATTTTCAGTATGTGCTAG", "fitted relative affinity [z-score]": 3.65}
{"Strand": "TTAGGTTTCATACTGCTTTAGTGCTAG", "fitted relative affinity [z-score]": 1.79}
{"Strand": "GACGGACTGCTTCTCCTGGCGTGCTAG", "fitted relative affinity [z-score]": 0.296}
{"Strand": "TCACCTGTCCTTTTCTTACTGTGCTAG", "fitted relative affinity [z-score]": 2.62}
{"Strand": "GACAGACTGGGGACTGGGGACGTGCTA", "fitted relative affinity [z-score]": -0.257}
{"Strand": "TTAGCACTGGGACTGGGTTAGTGCTAG", "fitted relative affinity [z-score]": -0.438}
{"Strand": "TGCACTCTTTACATGGGTTTGTGCTAG", "fitted relative affinity [z-score]": 1.18}
{"Strand": "GACGGTTACCTTTCCCTGACGTGCTAG", "fitted relative affinity [z-score]": 1.47}
{"Strand": "CTCTGCTTGTGTCTGGGATTGTGCTAG", "fitted relative affinity [z-score]": 0.826}
{"Strand": "GACGCTATCAGTATCGAGACGTGCTAG", "fitted relative affinity [z-score]": 0.432}
{"Strand": "TTAGATCTCAGACTGGATTGGTGCTAG", "fitted relative affinity [z-score]": -0.178}
{"Strand": "GACGGACTGGGACCGGGGACGTGCTAG", "fitted relative affinity [z-score]": -0.783}
{"Strand": "TTAGATCTCAGTCACGATTAGTGCTAG", "fitted relative affinity [z-score]": -0.163}
{"Strand": "GAAGGTTTCCTTATCCTGACGTGCTAG", "fitted relative affinity [z-score]": 1.97}
{"note": "Some of these lines once more (study 3):"}
{"Change": "F9L", "normalised enrichment score": 0.346}
{"Change": "A10M", "normalised enrichment score": 1.94}
{"Change": "R5T", "normalised enrichment score": 0.104}
{"Change": "H3K", "normalised enrichment score": 0.656}
{"Change": "A10S", "normalised enrichment score": 1.64}
{"Change": "L7W", "normalised enrichment score": 1.11}
{"Change": "A10Q", "normalised enrichment score": 1.95}
{"Change": "L7E", "normalised enrichment score": 0.491}
{"Change": "L7C", "normalised enrichment score": 0.865}
{"Change": "A10N", "normalised enrichment score": 2.34}
{"Change": "H3P", "normalised enrichment score": 0.63}
